# Experimental data gathered from unrelated publications.
# Protocols differ between the studies behind these lines. Values joined by “and” are separate records of one study, mostly repeats; a detail may differ. ± gives the spread as reported.
# Chain of UniProt P78417 (whole entry, looked up): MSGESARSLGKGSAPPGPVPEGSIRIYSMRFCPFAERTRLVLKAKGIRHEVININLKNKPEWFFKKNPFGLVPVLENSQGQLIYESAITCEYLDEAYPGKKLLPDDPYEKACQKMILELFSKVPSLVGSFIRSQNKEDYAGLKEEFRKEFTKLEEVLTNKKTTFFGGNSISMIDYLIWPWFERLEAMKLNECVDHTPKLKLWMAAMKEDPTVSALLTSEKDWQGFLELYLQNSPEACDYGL
# Chain of UniProt P49327 (whole entry, looked up): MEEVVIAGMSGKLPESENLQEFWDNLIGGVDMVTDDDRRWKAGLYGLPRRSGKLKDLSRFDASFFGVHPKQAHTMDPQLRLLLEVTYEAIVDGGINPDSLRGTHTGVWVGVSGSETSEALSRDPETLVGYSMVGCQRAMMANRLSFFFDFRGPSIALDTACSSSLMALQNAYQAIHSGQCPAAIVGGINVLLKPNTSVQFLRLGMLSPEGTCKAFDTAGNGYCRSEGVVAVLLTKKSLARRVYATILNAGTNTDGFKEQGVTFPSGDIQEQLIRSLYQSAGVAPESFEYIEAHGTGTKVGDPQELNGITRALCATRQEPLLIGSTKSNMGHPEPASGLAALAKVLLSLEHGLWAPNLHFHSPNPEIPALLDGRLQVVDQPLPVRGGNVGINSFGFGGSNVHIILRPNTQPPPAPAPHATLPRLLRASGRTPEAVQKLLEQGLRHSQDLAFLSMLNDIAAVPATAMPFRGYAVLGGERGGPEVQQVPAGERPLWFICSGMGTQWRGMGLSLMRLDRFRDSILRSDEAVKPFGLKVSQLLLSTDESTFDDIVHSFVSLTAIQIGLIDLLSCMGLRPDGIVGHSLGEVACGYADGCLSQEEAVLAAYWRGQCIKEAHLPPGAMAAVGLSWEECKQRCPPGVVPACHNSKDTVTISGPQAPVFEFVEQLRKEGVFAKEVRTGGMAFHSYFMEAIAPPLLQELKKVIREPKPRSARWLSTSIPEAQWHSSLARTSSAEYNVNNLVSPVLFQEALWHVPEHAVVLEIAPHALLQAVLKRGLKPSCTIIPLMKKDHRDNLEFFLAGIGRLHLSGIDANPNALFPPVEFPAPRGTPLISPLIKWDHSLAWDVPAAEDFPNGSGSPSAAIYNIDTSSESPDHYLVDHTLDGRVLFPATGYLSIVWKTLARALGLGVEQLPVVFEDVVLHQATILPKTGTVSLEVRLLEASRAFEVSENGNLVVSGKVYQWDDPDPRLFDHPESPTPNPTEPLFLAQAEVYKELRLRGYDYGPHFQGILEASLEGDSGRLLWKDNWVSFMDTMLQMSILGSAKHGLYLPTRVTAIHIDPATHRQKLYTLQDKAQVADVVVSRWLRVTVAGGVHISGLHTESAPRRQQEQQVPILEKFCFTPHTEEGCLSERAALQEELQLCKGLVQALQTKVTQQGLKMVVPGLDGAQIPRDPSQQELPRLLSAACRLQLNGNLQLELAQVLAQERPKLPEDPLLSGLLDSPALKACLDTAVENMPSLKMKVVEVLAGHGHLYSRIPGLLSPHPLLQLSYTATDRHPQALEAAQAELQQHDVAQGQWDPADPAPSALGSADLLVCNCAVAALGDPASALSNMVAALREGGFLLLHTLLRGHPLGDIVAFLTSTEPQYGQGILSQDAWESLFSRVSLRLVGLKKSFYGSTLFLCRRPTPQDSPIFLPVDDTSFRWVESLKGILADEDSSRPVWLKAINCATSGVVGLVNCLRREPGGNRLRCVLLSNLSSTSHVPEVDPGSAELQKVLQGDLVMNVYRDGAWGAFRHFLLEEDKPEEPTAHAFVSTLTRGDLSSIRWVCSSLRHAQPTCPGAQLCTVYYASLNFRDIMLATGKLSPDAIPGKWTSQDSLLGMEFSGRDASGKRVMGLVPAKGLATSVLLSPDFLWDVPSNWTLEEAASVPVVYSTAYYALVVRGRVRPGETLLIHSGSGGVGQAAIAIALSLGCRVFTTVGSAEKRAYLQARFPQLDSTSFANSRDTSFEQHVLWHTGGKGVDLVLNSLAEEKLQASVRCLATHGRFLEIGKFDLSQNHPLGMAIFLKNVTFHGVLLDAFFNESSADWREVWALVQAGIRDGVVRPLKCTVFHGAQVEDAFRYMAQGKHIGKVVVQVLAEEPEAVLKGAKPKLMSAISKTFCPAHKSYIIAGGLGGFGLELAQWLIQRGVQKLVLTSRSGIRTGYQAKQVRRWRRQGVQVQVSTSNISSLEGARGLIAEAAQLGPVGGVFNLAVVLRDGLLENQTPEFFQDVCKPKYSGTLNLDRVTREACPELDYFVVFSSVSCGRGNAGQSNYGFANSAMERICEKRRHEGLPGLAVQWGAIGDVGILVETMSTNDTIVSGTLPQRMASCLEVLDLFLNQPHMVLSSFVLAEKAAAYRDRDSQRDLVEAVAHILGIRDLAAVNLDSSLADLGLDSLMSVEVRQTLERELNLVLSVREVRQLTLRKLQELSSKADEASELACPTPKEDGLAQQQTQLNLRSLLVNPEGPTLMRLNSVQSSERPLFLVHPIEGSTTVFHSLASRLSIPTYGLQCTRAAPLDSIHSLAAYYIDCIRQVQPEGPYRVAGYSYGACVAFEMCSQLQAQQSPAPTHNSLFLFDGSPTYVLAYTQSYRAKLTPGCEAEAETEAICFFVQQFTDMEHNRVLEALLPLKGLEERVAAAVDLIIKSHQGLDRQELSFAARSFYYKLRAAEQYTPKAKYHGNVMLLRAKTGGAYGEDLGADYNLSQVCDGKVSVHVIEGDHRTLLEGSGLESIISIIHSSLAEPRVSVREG
Compound,target or system,test,system,setting,how to read,quantity,result
CC(C)C[C@H](NC(=O)[C@H](C)NC(=O)[C@@H](NC(=O)[C@H](CCCNC(=N)N)NC(=O)[C@H](CC(C)C)NC(=O)[C@H](Cc1c[nH]c2ccccc12)NC(=O)[C@@H]1CCCN1C(=O)[C@@H](N)CCCCN)C(C)C)C(=O)N[C@@H](CS)C(=O)N1CCC[C@H]1C(=O)NCC(=O)O,HEp-2,WST-1,,"8 µM, 24 h",,viability,101% and 92.4% and 89.4%
CCCCSCCCNC(=O)C1CCN(Cc2nc(-c3ccc(CC)cc3)oc2C)CC1,Vero-E6,CellTiter-Glo ATP,,"72 h, retest 8-point duplicates","reference: DMSO 0%, hyamine -100%, more negative, more toxic",maximum response,-14.6%
CN(C)N=O,HepaRG,,,"maximum tested, 24 h, 72 h recovery",reference: vehicle,relative survival,68%
Cc1cc(C(C)(C)c2ccc(O)c(C)c2)ccc1O,"HepG2 spheroids, dissociated",annexin V-FITC/PI flow cytometry,,"1 µM, 96 h",,viable cells,38.1 ± 9.63%
CO[C@H]1C[C@@H]2CC[C@@H](C)[C@@](O)(O2)C(=O)C(=O)N2CCCC[C@H]2C(=O)O[C@H]([C@H](C)C[C@@H]2CC[C@@H](OC(=O)NCCOCCOCCOCCOCCOCCOCCOCCOCCC(=O)N3CCc4cc(Cn5nc(-c6ccc7oc(N)nc7c6)c6c(N)ncnc65)ccc4C3)[C@H](OC)C2)C[C@@H](O)[C@H](C)/C=C(\C)[C@@H](O)[C@@H](OC)C(=O)[C@H](C)C[C@H](C)/C=C/C=C/C=C/1C,,,patients with advanced solid tumours,"intravenous, 1.6 mg/3 mg weekly, grade ≥3",,incidence of Fatigue TEAE,0%
O=S(=O)(c1ccc(-c2ccc3ncccc3c2)cc1)N1CCOCC1,NIH 3T3,"cytotoxicity, PrestoBlue",,"96 h, 2% FBS",,TC50,> 20 µM
CC(C)(c1ccc(O)cc1)c1ccc(O)cc1,"HepG2 spheroids, dissociated",annexin V-FITC/PI flow cytometry,,"40 µM, 24 h",,late apoptotic cells,9.19 ± 1.56%
COc1cc(CCC[P+](c2ccccc2)(c2ccccc2)c2ccccc2)c(OC)c2c1OCO2.[I-],T47D,SRB,,,,GI50,-6.38 log M
CC(Nc1nc(N2CCNCC2C)nc2ccccc12)c1ccccc1 (stereo not drawn),Vero-E6,CellTiter-Glo ATP,,"concentration not given, 72 h, second round 5-point","reference: DMSO 0%, hyamine -100%, more negative, more toxic",cytotoxicity efficacy,0%
CC(C)C[C@@H](N)C(=O)N[C@H](CC(C)C)C(=O)N[C@H](Cc1ccccc1)C(=O)N[C@H](Cc1ccccc1)C(=O)N[C@H](C)C(=O)N[C@H](CCC(=O)O)C(N)=O,NGF-differentiated PC-12 neurons,,,"20 µM, 24 h",reference: untreated,viability,98.3%
Cc1c(Cl)cccc1-c1ccc(CNCCSc2nnnn2-c2ccccc2)o1,Vero-E6,CellTiter-Glo ATP,,"concentration not given, 72 h, first round 5-point","reference: DMSO 0%, hyamine -100%, more negative, more toxic",cytotoxicity efficacy,0%
C/C=C(/C)C(=O)OC[C@H]1[C@@H](Cc2ccc(C(F)(F)F)cc2)CO[C@@H]1c1ccc(F)cc1,rat aortic VSMCs,,,"30 µM, 24.5 h",,LDH release,6 ± 1.4%
CC(C)C[C@@H](N)C(=O)N[C@H](CC(C)C)C(=O)N[C@H](Cc1ccccc1)C(=O)N[C@H](Cc1ccccc1)C(=O)N[C@H](C)C(N)=O,NGF-differentiated PC-12 neurons,,,"80 µM, 24 h",reference: untreated,viability,75.8%
CCN(CC)CCNC(=O)c1cc(-c2ccc(Br)s2)nc2ccccc12,Vero-E6,CellTiter-Glo ATP,,"concentration not given, 72 h, first round 5-point","reference: DMSO 0%, hyamine -100%, more negative, more toxic",cytotoxicity efficacy,-15.2%
Cc1ccc2[nH]c3c(c2c1)CCCC3NCCc1cccc(Br)c1 (stereo not drawn),A549,,,"50 µM, 23 h",,non-viable cells,56.4 ± 20.1%
O=S(=O)(c1ccc(-c2ccc3nccc(Nc4ccncn4)c3c2)cc1)N1CCOCC1,NIH 3T3,"cytotoxicity, PrestoBlue",,"96 h, 2% FBS",,TC50,> 20 µM
COc1ccc(Cl)cc1NC(=O)CSc1nc2ccccc2nc1N1CCCCC1,Vero-E6,CellTiter-Glo ATP,,"72 h, first round 5-point","reference: DMSO 0%, hyamine -100%, more negative, more toxic",maximum response,-1.77%
CC(C)C[C@@H](N)C(=O)N1CCC[C@@H]1C(=O)N[C@H](Cc1ccccc1)C(=O)N[C@H](Cc1ccccc1)C(=O)N[C@H](C)C(N)=O,NGF-differentiated PC-12 neurons,,,"20 µM, 24 h",reference: untreated,viability,100%
N.N.[Cl][Pt][Cl],HepaRG,micronucleus formation,,,,lowest effective concentration,16 µM
CC1=CC(=O)c2c(O)cccc2C1=O,MRC-5,"cytotoxicity, MTT",,"48 h, 10% FBS",,IC50,5 ± 0.08 µM
C[C@@H](O)[C@@H](CO)NC(=O)[C@@H](CCCNC(=N)N)NC(=O)[C@@H]1CCCN1C(=O)[C@@H]1CSSC[C@H](NC(=O)[C@H](Cc2ccccc2)NC(=O)CN2CCN(CC(=O)O)CCN(CC(=O)O)CCN(CC(=O)O)CC2)C(=O)N[C@@H](Cc2ccc(O)cc2)C(=O)N[C@@H](Cc2ccccc2)C(=O)N[C@@H](CCC(N)=O)C(=O)N[C@@H](CC(N)=O)C(=O)N1 [gallium-68 labelled],,,"Wistar rat, pancreas","intravenous, 8 MBq, 60 min, group mean",,tissue uptake,0.14 %ID/g
O=C(O)C[C@H](NC(=O)[C@H](CC(=O)O)NC(=O)[C@H](CC(=O)O)NC(=O)[C@H](CC(=O)O)NC(=O)[C@H](CC(=O)O)NC(=O)[C@H](CC(=O)O)NC(=O)[C@H](CC(=O)O)NC(=O)[C@H](CC(=O)O)NC(=O)[C@H](CC(=O)O)NC(=O)[C@H](CC(=O)O)NC(=O)[C@H](CC(=O)O)NC(=O)[C@H](CCCCNC(=O)c1ccc(C(=O)NCCOCCOB2BBBBBB3BBBB3B2)cc1)NC(=O)CN1CCN(CC(=O)O)CCN(CC(=O)O)CCN(CC(=O)O)CC1)C(=O)O [gallium-67 labelled],,,"ddY male mice, pancreas","intravenous, 37 kBq, 1 h",,tissue uptake,0.3 %ID/g
CC(c1ccccc1)(c1ccc(O)cc1)c1ccc(O)cc1,HepG2 spheroids,annexin V-FITC/PI flow cytometry,,"10 µM, 24 h",,necrotic cells,7.84 ± 2.36%
CC(=O)N1CCC(C(=O)N2CCN3C(=O)c4cc(-c5ccccc5)ccc4NC(=O)C3C2)CC1 (stereo not drawn),Salmonella typhimurium,,TA1537,50 µg/plate,reference: vehicle,fold increase in revertants,1.3
O=c1ccc2ccccc2o1,HepaRG 3D spheroids,DNA structure,,"24 h, high-content imaging",,point of departure,653 µM
CC(C)C[C@@H](NC(=O)[C@H](N)CCCCN)C(=O)N[C@@H](C(=O)N[C@H](Cc1ccccc1)C(=O)N[C@H](Cc1ccccc1)C(N)=O)C(C)C,NGF-differentiated PC-12 neurons,,,"160 µM, 24 h",reference: untreated,viability,100%
COc1ccc(Nc2cc(C(=O)NCCCN3CCN(c4ccc(OC)cc4)CC3)c3ccccc3n2)cc1,Vero-E6,CellTiter-Glo ATP,,"concentration not given, 72 h, second round 5-point","reference: DMSO 0%, hyamine -100%, more negative, more toxic",cytotoxicity efficacy,-20.6%
CN1CCCN(S(=O)(=O)c2ccc(-c3ccc4ccnc(Nc5ccc(OCc6cccc(F)c6)c(Cl)c5)c4c3)cc2)CC1,NIH 3T3,PrestoBlue,2% FBS medium,96 h,,TC50,25 µM
COc1ccc(Nc2ccnc3ccc(-c4ccc(S(=O)(=O)N5CCOCC5)cc4)cc23)cc1Cl,NIH 3T3,"cytotoxicity, PrestoBlue",,"96 h, 2% FBS",,TC50,> 20 µM
Cc1cnc(Nc2ccc(OCCN3CCCC3)cc2)nc1Nc1cccc(S(=O)(=O)NC(C)(C)C)c1,human coronavirus OC43,virus-induced cell killing,MRC-5,maximum over 10 doses,,maximum inhibition,0%
COc1ccc(Nc2nn3c(-c4ccccc4)ccnc3c2C(=O)Nc2ccc(Cl)cc2)cc1,WI-38,MTT,serum-free medium,"500.00 µg/mL, 48 h",,viability,61.7%
O=C1c2c(O)c(=O)ccn2N([C@@H]2c3ccccc3SCc3c2ccc(F)c3F)[C@@H]2COCCN12,,,"BALB/c mice, plasma","oral, 5 mg/kg baloxavir marboxil, 10 h",,plasma concentration,5.89 ng/mL
CN1CC[C@@H](c2c(O)cc(O)c3c(=O)cc(-c4ccc(C(F)(F)F)cc4Cl)oc23)[C@@H]1CO,,item: Fatigue,B-cell malignancies,"oral, 100 mg, intermittent dosing",,patients with adverse event,33.3%
C[C@H]1CN(c2n[nH]c3nc(N[C@H]4CC[C@H](NS(=O)(=O)CCC(F)(F)F)CC4)ncc23)CCO1,"Fatty acid synthase (FASN, Homo sapiens, UniProt P49327)","inhibitor, Kinobeads competition profiling",,20 µM,reference: vehicle,relative abundance,1.19
COc1cc2c(Oc3ccc4[nH]c(C)cc4c3F)ccnc2cc1OCC1(N)CC1,,,"sarcoma, recurrent or refractory, high-risk, paediatric","concentration not given, grade 3, whole group",,QTc interval prolongation incidence,0%
Oc1ccc(C(c2ccc(O)cc2)(C(F)(F)F)C(F)(F)F)cc1,"HepG2 spheroids, dissociated",annexin V-FITC/PI flow cytometry,,"10 µM, 24 h",,early apoptotic cells,13.1 ± 2.35%
O=C(c1ccc(Cl)cc1)N1CCN2C(=O)N(OC(=O)N3CCOc4ccccc43)C(=O)C2C1 (stereo not drawn),"Glutathione S-transferase omega-1 (GSTO1, Homo sapiens, UniProt P78417)",MS-based ABPP,SW-620 conditioned medium,10 µM,"reference: compound over DMSO, lower = more inhibition",mean protein ratio,1.12
CC(C)C[C@@H](NC(=O)[C@H](N)CCCCN)C(=O)N1CCC[C@@H]1C(=O)N[C@H](Cc1ccccc1)C(=O)N[C@H](Cc1ccccc1)C(N)=O,NGF-differentiated PC-12 neurons,,,"160 µM, 24 h",reference: untreated,viability,100%
COc1ccc(N2CCN(CCCNC(=O)c3cc(Nc4ccc(OC)cc4OC)nc4ccccc34)CC2)cc1,Vero-E6,CellTiter-Glo ATP,,"concentration not given, 72 h, retest 8-point duplicates","reference: DMSO 0%, hyamine -100%, more negative, more toxic",cytotoxicity efficacy,-22.6%
O=[N+]([O-])c1ccc(-c2nn(-c3ccccc3)c3sc(NC(c4ccccc4O)P(=O)(Oc4ccccc4)Oc4ccccc4)nc23)cc1 (stereo not drawn),BNL mouse liver cells,SRB,,"10 µM, 10% fetal bovine serum",,viability,95.6%
CC(C)C[C@@H](N)C(=O)N[C@H](Cc1ccccc1)C(=O)N[C@H](Cc1ccccc1)C(=O)N[C@H](C)C(N)=O,NGF-differentiated PC-12 neurons,,,"20 µM, 24 h",reference: untreated,viability,96.5%
Cc1ccc(N)cc1N,HepaRG,,,"maximum tested, 24 (unit not given)",,micronucleated cells,0.4%
N=C(N)NCCC[C@H](NC(=O)[C@@H](Cc1ccccc1)NC(=O)[C@H](Cc1c[nH]cn1)NC(=O)CCCc1ccccc1)C(=O)N[C@@H](Cc1c[nH]c2ccccc12)C(=O)NCC(=O)N[C@@H](CCCCNC(=O)CCCCCNC(=O)CN1CCN(CC(=O)O)CCN(CC(=O)O)CCN(CC(=O)O)CC1)C(N)=O [actinium-225 labelled],,five-compartment model fit,"SCID mice, A-375 and A-375/MC1R xenografts",,,kidney uptake rate constant (ki),0.0034 h⁻¹
Clc1ccc(-c2nn3c(Cn4nnc5ccccc54)nnc3s2)c(Cl)c1,HEp-2,cytotoxicity,,,,CC50,> 100 µM
CC(C)C[C@@H](NC(=O)[C@H](N)CCCCN)C(=O)N[C@H](CC(C)C)C(=O)N[C@H](Cc1ccccc1)C(=O)N[C@H](Cc1ccccc1)C(=O)N[C@H](C)C(=O)N[C@H](CCC(=O)O)C(N)=O,NGF-differentiated PC-12 neurons,,,"20 µM, 24 h",reference: untreated,viability,100%
Clc1cccc(-c2nn3c(Cn4nnc5ccccc54)nnc3s2)c1,HEp-2,cytotoxicity,,,,CC50,> 100 µM
CC(C)C[C@@H](NC(=O)[C@H](N)CCCCN)C(=O)N1CCC[C@@H]1C(=O)N[C@H](Cc1ccccc1)C(=O)N[C@H](Cc1ccccc1)C(=O)N[C@H](C)C(=O)N[C@H](CCC(=O)O)C(N)=O,NGF-differentiated PC-12 neurons,,,"5 µM, 24 h",reference: untreated,viability,100%
CCCCNC(=O)C1CCCN(Cc2nc(-c3ccc(Cl)cc3)oc2C)C1 (stereo not drawn),Vero-E6,CellTiter-Glo ATP,,"72 h, second round 5-point","reference: DMSO 0%, hyamine -100%, more negative, more toxic",maximum response,-26.4%

# Excerpt of the above:
Compound,target or system,test,system,setting,how to read,quantity,result
Cc1cnc(Nc2ccc(OCCN3CCCC3)cc2)nc1Nc1cccc(S(=O)(=O)NC(C)(C)C)c1,human coronavirus OC43,virus-induced cell killing,MRC-5,maximum over 10 doses,,maximum inhibition,0%
COc1ccc(Nc2nn3c(-c4ccccc4)ccnc3c2C(=O)Nc2ccc(Cl)cc2)cc1,WI-38,MTT,serum-free medium,"500.00 µg/mL, 48 h",,viability,61.7%
O=C1c2c(O)c(=O)ccn2N([C@@H]2c3ccccc3SCc3c2ccc(F)c3F)[C@@H]2COCCN12,,,"BALB/c mice, plasma","oral, 5 mg/kg baloxavir marboxil, 10 h",,plasma concentration,5.89 ng/mL
CN1CC[C@@H](c2c(O)cc(O)c3c(=O)cc(-c4ccc(C(F)(F)F)cc4Cl)oc23)[C@@H]1CO,,item: Fatigue,B-cell malignancies,"oral, 100 mg, intermittent dosing",,patients with adverse event,33.3%
